Measurements gathered from unrelated publications.
A part holds a random share of what one study measured. “And” joins repeats or separate records; there may be more than shown.
Chain of UniProt Q8N568 (whole entry, looked up): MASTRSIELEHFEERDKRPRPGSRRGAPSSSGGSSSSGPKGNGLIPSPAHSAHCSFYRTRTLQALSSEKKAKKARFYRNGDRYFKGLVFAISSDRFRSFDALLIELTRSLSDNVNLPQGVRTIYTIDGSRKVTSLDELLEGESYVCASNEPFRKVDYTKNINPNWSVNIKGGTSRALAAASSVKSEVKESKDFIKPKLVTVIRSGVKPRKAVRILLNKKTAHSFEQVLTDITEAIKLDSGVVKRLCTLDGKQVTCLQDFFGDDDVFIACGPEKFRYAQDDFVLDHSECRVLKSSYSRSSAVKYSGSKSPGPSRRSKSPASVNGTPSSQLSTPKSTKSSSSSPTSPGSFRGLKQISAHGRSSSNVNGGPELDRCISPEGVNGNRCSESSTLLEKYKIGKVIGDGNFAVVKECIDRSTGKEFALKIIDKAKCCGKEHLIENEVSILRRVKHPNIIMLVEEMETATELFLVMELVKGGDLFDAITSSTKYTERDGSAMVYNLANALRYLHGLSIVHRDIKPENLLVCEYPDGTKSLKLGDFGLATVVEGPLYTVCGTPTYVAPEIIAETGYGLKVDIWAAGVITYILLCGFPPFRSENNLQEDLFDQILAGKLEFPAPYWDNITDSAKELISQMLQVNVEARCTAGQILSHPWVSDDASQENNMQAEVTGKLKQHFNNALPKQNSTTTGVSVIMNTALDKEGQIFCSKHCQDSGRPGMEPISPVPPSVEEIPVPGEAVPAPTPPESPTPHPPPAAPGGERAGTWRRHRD
Chain of UniProt P22455 (whole entry, looked up): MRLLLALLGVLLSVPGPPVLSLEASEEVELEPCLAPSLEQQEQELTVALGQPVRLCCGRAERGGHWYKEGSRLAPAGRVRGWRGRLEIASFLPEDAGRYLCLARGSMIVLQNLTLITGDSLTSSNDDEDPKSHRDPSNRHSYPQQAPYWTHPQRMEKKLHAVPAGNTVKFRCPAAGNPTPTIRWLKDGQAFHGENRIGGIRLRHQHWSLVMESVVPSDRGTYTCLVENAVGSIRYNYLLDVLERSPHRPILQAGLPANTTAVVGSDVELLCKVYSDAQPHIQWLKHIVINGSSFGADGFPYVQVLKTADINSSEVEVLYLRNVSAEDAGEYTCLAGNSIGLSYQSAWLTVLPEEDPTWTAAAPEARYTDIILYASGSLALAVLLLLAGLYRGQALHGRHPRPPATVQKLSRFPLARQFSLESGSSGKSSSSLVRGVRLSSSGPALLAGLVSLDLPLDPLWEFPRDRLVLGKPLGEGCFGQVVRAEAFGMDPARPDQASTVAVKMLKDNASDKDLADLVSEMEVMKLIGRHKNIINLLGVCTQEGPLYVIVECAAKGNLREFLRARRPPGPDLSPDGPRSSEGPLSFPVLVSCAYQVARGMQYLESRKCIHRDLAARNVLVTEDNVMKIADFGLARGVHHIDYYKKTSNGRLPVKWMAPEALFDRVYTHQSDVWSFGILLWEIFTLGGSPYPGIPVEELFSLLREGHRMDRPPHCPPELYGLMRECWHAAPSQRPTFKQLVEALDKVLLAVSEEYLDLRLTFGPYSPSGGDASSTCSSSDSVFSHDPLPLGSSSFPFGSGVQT
Chain of UniProt Q96L34 (whole entry, looked up): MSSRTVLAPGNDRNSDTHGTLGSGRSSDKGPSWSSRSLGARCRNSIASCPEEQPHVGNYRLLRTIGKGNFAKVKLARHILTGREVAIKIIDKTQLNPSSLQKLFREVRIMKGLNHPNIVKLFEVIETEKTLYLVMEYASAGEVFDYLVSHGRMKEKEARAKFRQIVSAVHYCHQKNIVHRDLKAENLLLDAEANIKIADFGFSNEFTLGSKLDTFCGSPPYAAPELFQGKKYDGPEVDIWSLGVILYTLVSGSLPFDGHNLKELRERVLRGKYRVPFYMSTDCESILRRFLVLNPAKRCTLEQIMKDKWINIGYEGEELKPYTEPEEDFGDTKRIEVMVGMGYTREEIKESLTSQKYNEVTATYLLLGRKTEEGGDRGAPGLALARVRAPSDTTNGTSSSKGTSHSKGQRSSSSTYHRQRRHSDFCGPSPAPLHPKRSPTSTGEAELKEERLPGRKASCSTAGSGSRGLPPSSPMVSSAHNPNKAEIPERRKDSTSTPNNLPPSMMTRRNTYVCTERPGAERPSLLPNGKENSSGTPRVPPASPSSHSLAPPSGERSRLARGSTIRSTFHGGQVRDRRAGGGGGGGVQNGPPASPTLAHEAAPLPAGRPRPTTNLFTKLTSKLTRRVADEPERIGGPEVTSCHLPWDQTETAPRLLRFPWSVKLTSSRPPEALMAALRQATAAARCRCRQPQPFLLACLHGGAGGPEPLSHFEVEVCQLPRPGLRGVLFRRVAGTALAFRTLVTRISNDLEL
Chain of UniProt O76039 (whole entry, looked up): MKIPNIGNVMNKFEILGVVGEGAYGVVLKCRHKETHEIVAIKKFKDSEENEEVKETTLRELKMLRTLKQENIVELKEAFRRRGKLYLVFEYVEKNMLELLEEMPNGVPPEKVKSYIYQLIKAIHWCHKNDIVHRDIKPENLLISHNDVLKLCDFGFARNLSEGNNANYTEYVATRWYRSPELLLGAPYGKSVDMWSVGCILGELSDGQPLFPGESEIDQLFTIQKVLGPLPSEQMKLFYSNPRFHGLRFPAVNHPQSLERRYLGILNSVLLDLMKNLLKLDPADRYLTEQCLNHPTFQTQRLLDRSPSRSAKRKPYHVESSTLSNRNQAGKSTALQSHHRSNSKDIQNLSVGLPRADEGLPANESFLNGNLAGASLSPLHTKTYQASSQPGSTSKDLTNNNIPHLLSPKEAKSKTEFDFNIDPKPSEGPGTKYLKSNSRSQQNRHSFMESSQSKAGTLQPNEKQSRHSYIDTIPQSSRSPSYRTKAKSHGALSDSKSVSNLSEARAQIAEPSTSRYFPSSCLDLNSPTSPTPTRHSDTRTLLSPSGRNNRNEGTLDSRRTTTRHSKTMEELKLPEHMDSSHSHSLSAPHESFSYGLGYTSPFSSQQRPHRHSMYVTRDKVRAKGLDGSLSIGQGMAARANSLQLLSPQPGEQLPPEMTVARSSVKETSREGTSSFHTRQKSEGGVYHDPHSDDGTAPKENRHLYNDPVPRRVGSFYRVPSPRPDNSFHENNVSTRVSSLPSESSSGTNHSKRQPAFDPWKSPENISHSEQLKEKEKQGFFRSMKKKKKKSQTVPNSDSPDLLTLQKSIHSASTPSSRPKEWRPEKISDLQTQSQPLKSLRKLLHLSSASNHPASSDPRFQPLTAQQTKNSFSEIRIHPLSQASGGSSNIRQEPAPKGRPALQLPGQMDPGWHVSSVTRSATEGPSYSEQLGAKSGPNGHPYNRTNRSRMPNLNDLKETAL
Chain of UniProt Q9UKE5 (whole entry, looked up): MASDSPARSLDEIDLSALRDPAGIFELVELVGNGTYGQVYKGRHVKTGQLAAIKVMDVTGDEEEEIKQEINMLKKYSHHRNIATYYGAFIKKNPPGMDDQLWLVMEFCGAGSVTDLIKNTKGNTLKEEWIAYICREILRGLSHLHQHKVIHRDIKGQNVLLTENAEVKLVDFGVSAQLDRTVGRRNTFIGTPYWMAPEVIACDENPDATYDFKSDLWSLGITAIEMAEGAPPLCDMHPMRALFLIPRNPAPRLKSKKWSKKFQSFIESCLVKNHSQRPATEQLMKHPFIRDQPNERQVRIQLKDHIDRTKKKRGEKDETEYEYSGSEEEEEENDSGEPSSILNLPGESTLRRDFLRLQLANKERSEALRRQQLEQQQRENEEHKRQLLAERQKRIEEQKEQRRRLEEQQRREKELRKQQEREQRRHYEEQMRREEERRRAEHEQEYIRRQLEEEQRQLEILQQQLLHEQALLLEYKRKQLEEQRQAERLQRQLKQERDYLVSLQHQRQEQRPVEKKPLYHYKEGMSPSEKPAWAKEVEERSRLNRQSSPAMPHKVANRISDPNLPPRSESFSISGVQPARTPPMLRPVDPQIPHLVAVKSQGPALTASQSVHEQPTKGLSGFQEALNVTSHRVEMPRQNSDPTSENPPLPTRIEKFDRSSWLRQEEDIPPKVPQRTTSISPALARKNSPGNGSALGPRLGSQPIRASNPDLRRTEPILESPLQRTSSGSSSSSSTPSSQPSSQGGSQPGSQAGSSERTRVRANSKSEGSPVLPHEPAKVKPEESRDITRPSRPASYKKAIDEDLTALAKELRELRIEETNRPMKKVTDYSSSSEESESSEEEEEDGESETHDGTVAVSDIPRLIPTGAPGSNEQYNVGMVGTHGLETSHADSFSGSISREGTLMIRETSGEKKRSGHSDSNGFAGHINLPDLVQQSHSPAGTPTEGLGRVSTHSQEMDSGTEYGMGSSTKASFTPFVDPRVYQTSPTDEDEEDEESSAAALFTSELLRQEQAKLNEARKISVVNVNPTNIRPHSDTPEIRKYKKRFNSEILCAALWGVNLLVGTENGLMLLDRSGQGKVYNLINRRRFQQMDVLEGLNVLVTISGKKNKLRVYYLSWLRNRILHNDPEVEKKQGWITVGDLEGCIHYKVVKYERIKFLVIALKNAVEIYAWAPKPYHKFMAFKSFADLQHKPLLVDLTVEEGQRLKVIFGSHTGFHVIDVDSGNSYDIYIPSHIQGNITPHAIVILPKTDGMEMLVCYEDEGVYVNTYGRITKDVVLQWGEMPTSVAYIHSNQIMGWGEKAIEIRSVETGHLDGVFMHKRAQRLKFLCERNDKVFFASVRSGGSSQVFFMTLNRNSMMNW
Chain of UniProt Q16539 (whole entry, looked up): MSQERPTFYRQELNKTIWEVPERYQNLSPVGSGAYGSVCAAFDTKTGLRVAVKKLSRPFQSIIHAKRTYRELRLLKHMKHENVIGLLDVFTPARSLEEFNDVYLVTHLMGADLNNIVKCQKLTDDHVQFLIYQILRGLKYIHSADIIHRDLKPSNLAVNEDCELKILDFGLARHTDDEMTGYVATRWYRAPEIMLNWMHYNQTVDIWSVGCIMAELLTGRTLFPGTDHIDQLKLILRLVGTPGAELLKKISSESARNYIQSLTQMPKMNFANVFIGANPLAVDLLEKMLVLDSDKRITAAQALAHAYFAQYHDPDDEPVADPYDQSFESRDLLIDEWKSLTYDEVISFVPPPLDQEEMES

Set 1
Host: mouse
Sample: microsomes or S9
Tested at: 2 µM
Time: 0.5 h
SMILES	remaining compound [%]
Cc1nc2c(cc1Br)nc(Cl)n2C	0.988
CN(c1cccnn1)S(=O)(=O)c1c(Cl)ccc2scnc12	92.6
O=c1cc(O)c2sc3nc(-c4cccs4)cc(-c4ccc(F)cc4)c3c2[nH]1	52.9
CCc1cccc(CC)c1NC(=O)CN(c1cccc(Cl)c1Cl)S(C)(=O)=O	1.68
Clc1ccccc1C1(c2ccnc(Cn3cncn3)n2)CCNCC1	44.4
CCOC(=O)C1CCN(Cc2nc(N)nc(Nc3ccc(C)cc3)n2)c2ccccc21 (stereo not shown)	0.705
O=C(CC(c1ccccc1)c1ccccc1)N1CCOCC1	22.1
COc1ccc(-c2c(-n3cncn3)c([S+](C)[O-])nn2-c2ccc(F)cc2)cc1 (stereo not shown)	38.1
CCOC(=O)N1CCN(C(=O)c2cn(C)c(=O)cc2OC)CC1	97.3

Set 2
Cell line: mouse MPNST tumor cells
Method: high-content nuclear imaging
Refers to: cell number
Tested at: 10 µM
Time: 12 h
Notes: mean of 2 replicates
Reference: plate mean
Reading: higher = more cells
Compound	nuclei count
O=c1cc(-c2ccc([N+](=O)[O-])cc2)nc2c(-c3ccc(Cl)cc3)c(Cc3ccccc3)[nH]n12	-3.2 z-score
NC(=O)Nc1cc(-c2cccc(F)c2)sc1C(=O)N[C@H]1CCCNC1	-4.69 z-score
O=C(C=Cc1ccccc1)NC(NC(=S)Nc1ccc(Cl)cc1)C(Cl)(Cl)Cl (stereo not shown)	-0.246 z-score
N#CC(=Cc1cn(-c2ccccc2)c2ccccc12)C(=O)O	0.257 z-score
CCCN(CCC)CCc1cccc2c1CC(=O)N2	1.68 z-score
CNCC(O)c1ccc(O)c(O)c1 (stereo not shown)	1.61 z-score
Clc1ccc(COC(Cn2ccnc2)c2ccc(Cl)cc2Cl)c(Cl)c1 (stereo not shown)	3.22 z-score and 2.04 z-score
Cc1c(NC(C)C)c(=O)n(-c2ccccc2)n1C	4.62 z-score

Set 3
SMILES: O=C1Nc2ccccc2/C1=C\c1c(Cl)[nH]c2ccccc12
Read-out: enzyme activity
Mode: inhibitor
Tested at: 0.5 µM
Reference: control
target	remaining activity [%]
CLK3 (Homo sapiens, UniProt P49761)	102
NEK3 (Homo sapiens, UniProt P51956)	91.2
ROCK1 (Homo sapiens, UniProt Q13464)	101
DCLK2 (Homo sapiens, UniProt Q8N568)	93.5
CAMK4 (Homo sapiens, UniProt Q16566)	102
MARK4 (Homo sapiens, UniProt Q96L34)	106
MAPK14 (Homo sapiens, UniProt Q16539)	101
Cyclin-dependent kinase 1, with cyclin A (CDK1, Homo sapiens, UniProt P06493)	103
PNCK (Homo sapiens, UniProt Q6P2M8)	92.9
KDR (Homo sapiens, UniProt P35968)	96.3
MET (Homo sapiens, UniProt P08581)	109
TXK (Homo sapiens, UniProt P42681)	99.6
PAK3 (Homo sapiens, UniProt O75914)	98.8
CLK4 (Homo sapiens, UniProt Q9HAZ1)	105

Set 4
SMILES: Cc1c(NC(=O)c2cc(C(N)=O)nc3cc(F)ccc23)c(C(F)(F)F)nn1Cc1ccc(C(C)(C)C)cc1
Read-out: cell-free assay
Method: competition with immobilised ligand
Tested at: 1 µM
target	remaining binding
CDKL5 (Homo sapiens, UniProt O76039)	100%
TNIK (Homo sapiens, UniProt Q9UKE5)	98%
FGFR4 (Homo sapiens, UniProt P22455)	100%
PIKFYVE (Homo sapiens, UniProt Q9Y2I7)	100%
PIK3CA (Homo sapiens, UniProt P42336, H1047Y)	89%
HIPK2 (Homo sapiens, UniProt Q9H2X6)	100%
EGFR (Homo sapiens, UniProt P00533, L861Q)	65%
MAP3K14 (Homo sapiens, UniProt Q99558)	100%
KIT (Homo sapiens, UniProt P10721, T670I/V559D)	100%

Some of these lines once more (set 3):
target	remaining activity [%]
TXK (Homo sapiens, UniProt P42681)	99.6
MAPK14 (Homo sapiens, UniProt Q16539)	101
MET (Homo sapiens, UniProt P08581)	109
